Results pooled from the literature.
Every numbered part comes from another study and shows a few of its results, in no order.

Set 1
Target: RNA binding protein fox-1 homolog 2, RRM domain, GST-SBP tag (RBFOX2, Homo sapiens, UniProt O43251-10, residues 100-194)
Method: RNA Bind-n-Seq
Form: RNA
Medium: in vitro
Tested at: 365 nM
Setting: natural RNA segment, single round, ends assumed
Relative to: no-protein control
Direction: higher = stronger binding
Shared flanks, not repeated: GGGAGUUCUACAGUCCGACGAUC … UGGAAUUCUCGGGUGCCAA
Target sequence (chain): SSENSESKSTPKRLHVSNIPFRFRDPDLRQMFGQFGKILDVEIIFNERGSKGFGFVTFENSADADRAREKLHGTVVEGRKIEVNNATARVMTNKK
| Strand | RBNS enrichment (R) |
| --- | --- |
| GCCCCAUGCUGCAUCGUGUUGUAUUGGGAUGGGGCUGAGGAACAUGCUCCCUCCCUCCCUCCCAUAAAAUGCCUGCUCUUCACCUCCCACCUUUGUGGGGGGCUUUUGAG | 0.629 |
| CCAAAUUGGGACUAUUGAGAGAGAAAGGGGAUGCUAUUAAUUACACCAGAUCAAAAGGCAUAAACCAGACCUGUCCCAGGCCGAUGUGGAAAUAUGUUCUUUCUAGUUGU | 0.322 |
| UUAAGAUUAUGUAUUUGCUACAAAGUAUUGUACUUGUCUCAAUGGGAAUGGUGUUAAAAAAGAAAAAAAGACAGAAAAGGCCUUAUGUGAUAUGUAUCAUAGUUAAUAAA | 0.815 |
| UUGGGCCUCUCUUGACUAUAGCAGGCUGCUGCUGCGGCUUGUCUGGACACCUGGGGACUUCCCCGCCUCCCUUCCCUUCUGUGUCCCCAGGUCCCCCGCAGGCCCCUGAG | 0.676 |
| CUUUAAGUGUUGGCUGUAUGUGCUGGGUUCUCUAAAGAAGUUUCUCUUCCCGAGCUGUUUUUCCGAGCAGUUUUGUUCGUGUCUCUUAAGGAAAUCACCAGCUUUGGCAU | 0.403 |
| UGUGUGGCCAGGCUGCAGAGCUGCGUGCCGUUUGUGUCCGAGCAUCACGUGUGGCUCCAGCCCUUGUUUCUGCCAGUGUAGACACCUCUGUCUGCCCCACUGUCCUGGGG | 0.321 |
| UCAUGAUUGUAAAGGGAAUAUAUAACCACACAGAUUUUAUAGCUGCUUCCUGGUUAUCACUUACAUUCCGUAAGGAGCUGUUCCUUAGGACCGGUUGGAAGUAGAAGAAA | 0.5 |
| GAGUGCGCAGCAAAUGACCUUCAUUGCCAGUUCCACCCUACUCCUCUCAUUUUUUAUACUAAGCAAUAACUUUCCAAAGCAAGAAGUUCAGGAUGGAGAGAGUCCCCUCC | 0.719 |
| CUUUGAUACCUUUGCGGUCAUGUCUGUGUCUGAUGAGUGUAGAAUCUCUGGAUGUGCACUGUCAGUCAUGUGUCCACCAGGCCUCGAAUAUCAUAUGGGAAAUGUCAUAG | 0.275 |
| AUUCUGAACCCCUCAGGUUCUCUGAAAGGGCACAGACCAUGGGCGUGAACAUUGUGCCGUACCUGAGAUGGUCUGUGGACUGCUGCUUCAGACACACGAGUCCUCGGAAC | 0.254 |
| GGUUAAAGUGGAUGAGGUUGGAAAGAGUUGCCAUAAUGAGGUCCCACGUGGCUUCUUCGAUAGGAGCCACAACUUGGGGUGGGAAGAACUUGUCCCUCAGGCUUGUUGCC | 1.35 |
| GAGGCUGUGGAACAAAACACGCUGCAGGAGUUCCUGAAGCUGGCUUGAGUCAAGCCUGUCCAGAGUUCCCCUGCUGGACUCCAUCACCACACUCCCCCCAGCCUUCACCU | 0.464 |

Set 2
Target: RING finger protein unkempt homolog, zinc fingers 1-6, GST-SBP tag (UNK, Homo sapiens, UniProt Q9C0B0, residues 30-357)
Method: RNA Bind-n-Seq
Form: RNA
Medium: in vitro
Tested at: not given
Setting: RNA with constant flanks, human-mouse chimeric sites, ends assumed
Relative to: input RNA pool
Direction: higher = stronger binding
Shared flanks, not repeated: GGGAGUUCUACAGUCCGACGAUC … CAACAGAGGAUUGAGCAUCA
Construct (chain): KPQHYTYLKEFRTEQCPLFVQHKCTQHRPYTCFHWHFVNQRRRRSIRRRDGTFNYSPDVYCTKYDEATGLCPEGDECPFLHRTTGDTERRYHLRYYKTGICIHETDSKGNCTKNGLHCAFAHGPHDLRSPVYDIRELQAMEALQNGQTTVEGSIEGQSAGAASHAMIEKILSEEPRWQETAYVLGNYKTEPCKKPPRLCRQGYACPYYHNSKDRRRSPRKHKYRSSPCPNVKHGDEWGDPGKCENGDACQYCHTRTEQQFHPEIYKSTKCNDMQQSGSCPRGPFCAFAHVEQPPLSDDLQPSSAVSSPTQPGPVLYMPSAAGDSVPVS
| Strand | bound/input enrichment |
| --- | --- |
| AGAUUCCCCCUCCUGAGGCCUUCUCCAAAGUUGGAGUCUCUUACAGAUGGUUCAUCUCCUGUUAGCGUUUUAGUUUGGACCACCCAGCCUUGGACAAUUCCCGCCAACCAGGCAAUUUGC | 1.27 ratio |
| UUGAAAACUGAUUCAAGCAAGUUUGAAUAUCACAAUGUUAGCUUUCUAAUUCCAUAAAAGUACUUGGUUUUUACAGUUUAUAAUCUGACAUCACCCCAGCGCCAUUUAGAUCAGCUUACU | 1.39 ratio |
| UGUAACUUAUCUGUAAAAAAGGUUUCUCCCUACUGUCCAAAAAAUAUGCAUGUAUAGUAAUUAGGACUUCAUUCCUCCAUGUUUUCUUCCCUUAUCUUACUGUCAUUGUCCUUAAACCUU | 0.762 ratio |
| AACAGAUUGUCUUUAAGCAUUCCAAGCGAGAAUGCUGGGGUGAUCAUUGUUGCCCAUGUGCCUUCUGUAAUAGAUGGAAUGCUGUUCAUCCUUGAUGCUUUCCUUCACUCCAGAAUUGUU | 0.0932 ratio |
| GAUAAGAAAAACUUGUUGGAGACCCGCUUGCAUGUCACUGGUAGAGACCUGAGGUGUAAAAUAGCUGAAACUUUCGGAUUUCAAGAAAAUUACAUCAAGAUCGUAAUAAAUAAGAAACAG | 0.351 ratio |
| AUCAAAUACUUUGGGGACAUCAUUAGUGUGGGACAGAGACUGUUGCAAGGAGCUCGGAUUUUAGGAAUUCCAGUUAUCAUAACGGAACAAUACCCCAAAGGACUUGGGAGCACGGUUCAA | 0.566 ratio |
| UAAAUUAGGGCUGCCGUCCGUUCUCACUCCCUGGGCUGCGGAAAGCCAGAAGAUUUUAUCUAGCUUAUACAAGGCUGCUGGAGCUUGCUCUUUUUUUCCACGAGGGUGUUUUUGGCUGCA | 0.427 ratio |
| GAUAAGAAAAGCUUGUUGGAGACCCGCUUGCACAUCACUGGUAGAGACCUGAGGUGUAAAAUAGCUGAAACUUUCGGAUUUCAAGAAAAUUACAUCAAGAUCGUAAUAAAUAAGAAACAG | 0.423 ratio |
| AUCCCAAUUAUGGACACCGGUGAAAACCCAGAGGUGCCCUUCCCCCGGGACAUGAUUGACUUAGAGGCCAAUUUUGAGAAGAUUGAAAAUGAACUGAAGGAAAUCAACACAAACCAGGAA | 0.168 ratio |
| CUCAGAGAUGUGGCAUAUCAGUAUGUGAAAAAGGGGGCUCGAAUUUAUUUGGAAGGGAAAGUGGACUAUGGCGAGUACAUGGAUAAAAACAAUGUGAGGCGGCAAGCAACAACAAUCAUA | 0.364 ratio |
| GGUGGGGUGGUCAUUGCGCCAAUUGAGGCUGAUUUUCAUGAGUCGCCUUCAAAACUCUCGUGUAGGGUUGACAAUGUGGGGGGGUGGGGGAUCCAGCUUAUUCUUUUUCCCCAGCCCCCA | 1.76 ratio |

Set 3
Target: Fragile X messenger ribonucleoprotein 1, C-terminal low-complexity region (Fmr1, Mus musculus, UniProt P35922)
Method: RNA Bind-n-Seq
Form: RNA
Medium: in vitro
Tested at: 200 nM
Setting: whole 134-nt RNA, ends assumed
Added: 150 mM KCl
Relative to: input library
Direction: higher = stronger binding
Shared flanks, not repeated: GGGAGUUCUACAGUCCGACGAUC … UGGAAUUCUCGGGUGUCAAGG
| Strand | log2 enrichment |
| --- | --- |
| CACAGACAACACGCACCCACACAGACACAGAGGGAAGGGGUUGGGAUGGGGACAGGGUGCACAGCAGGGCGGGGCAGGACCCCAGCCCCU | 1.26 |
| UAACUUUAGAGGAGGAUCUGAUGGAUAGGGCAGUGGACGUGGAUUUGGGGAUGGCUAUAAUGGGUAUGGAGGAGGACCUGGAGGUGGCAA | 0.486 |
| UAACUUUAGAGGAGGAUCUGAUGGAUAUGGCAGUGGACGUGGAUUUGGGGAUGGCUAUAAUGGGUAUGGAGGAGCACCUGGAGGUGGCAA | 0.0842 |
| AGUCCUGUGCUACACAUCGUAUGUACCGAAUCGGGAAAAAAAGGGAAAGGGUUUGGGAAAGUAUUAUGUUACGCCGUUCGGAUCUGCACU | -0.0628 |
| UAACUUUAGAGGAGGAUCUGAUGGAUAUGGCAGUGGACGUGGAUUUGGGGAGGGCUAUAAUGGGUAUGGAGGAGGACCUGGAGGUGGCAA | 0.478 |
| UGGCCCUGGUGGCAUGCGGGUAGGAAGAGGUGGCCUCAUGGAUCGUGGUGGUCCCGGUGGAAUGUUCAGAGGUGGCCGUGGUGGAGACAG | 0.0152 |
| GUCCUGUGCUACACAUCGUAUGUACCGAAUCGGGCCCCCGGCCCCCGGGCCCCCGGGGAAAGUAUUAUGUUACGCCGUUCGGAUCUGCAC | -0.503 |
| AGUCCUGUGCUACACAUCGUAUGUACCGAAUCGGAAAAAAAGGAAAGGUUUUUUUGGAAAGUAUUAUGUUACGCCGUUCGGAUCUGCACU | -1.44 |
| UCCUGUGCUACACAUCGUAUGUACCGAAUCGGGGUUUGGGGUUUUUGGGGAAAAAGGGGAAAGUAUUAUGUUACGCCGUUCGGAUCUGCA | 0.68 |
| ACCAUGCAGGUGAAAAUCUUUGGGAAGUGGGGCAAGGGGGGGAUAGGGAGGGGGGUAACACUUUGGGAACAGGUGGUCCCAGGUCGUUUC | 0.554 |
| AGUCCUGUGCUACACAUCGUAUGUACCGAAUCGGGUUUUUUUGGGUUUGGGUUUGGGAAAGUAUUAUGUUACGCCGUUCGGAUCUGCACU | 0.495 |
| ACCAUGCAGGUGGGCAUCUUUGUGAAGUGGGGCAAGGGGGGGAUAGGGAGGGGGGUAACACUUUGGGAACAGGUGGUCCCAGGUCGUUUC | 1.17 |
| CAAGUCCUGUGCUACACAUCGUAUGUACCGAAUCGGGGAAAGGGAAAGGAAAGGGAAAGUAUUAUGUUACGCCGUUCGGAUCUGCACUUC | 0.0901 |
| UCAAGUCCUGUGCUACACAUCGUAUGUACCGAAUCGGGCCGGGGCCGGGGCCGGAAAGUAUUAUGUUACGCCGUUCGGAUCUGCACUUCC | -0.457 |

Set 4
Target: Histone acetyltransferase KAT6A, both winged helices, GST fusion (KAT6A, Homo sapiens, UniProt Q92794, residues 1-181)
Method: protein binding microarray
Form: double-stranded DNA, one strand shown
Medium: in vitro
Tested at: not given
Setting: 8-mer, flanks averaged, mean of 2 arrays, mostly near background
Relative to: not given
Direction: higher = stronger binding
Residues (chain): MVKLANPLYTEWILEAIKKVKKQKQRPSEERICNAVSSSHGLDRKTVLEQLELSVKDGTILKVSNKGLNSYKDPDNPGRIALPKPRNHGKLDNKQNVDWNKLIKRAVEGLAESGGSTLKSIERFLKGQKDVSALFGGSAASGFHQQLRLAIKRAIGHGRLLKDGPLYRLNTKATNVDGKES
| Strand | E-score |
| --- | --- |
| TACAGATA | -0.0816 |
| TAATAGAA | -0.0796 |
| AACGGGTA | 0.237 |
| CGGTAAGA | 0.163 |
| ATCCATGC | -0.0557 |
| GAGCCTAC | -0.104 |
| AATTGCCG | 0.284 |
| AGCTGCCT | -0.179 |
| CATACCAC | -0.0135 |
| CAATACGA | 0.0436 |
| ATGGTCAG | -0.181 |
| TCTCCGAA | 0.0496 |
| CAAATGCG | 0.0776 |
| CGTTAAGC | 0.136 |
| ATTGATCA | -0.0979 |
| ACAAGAGC | -0.13 |
| ATATTCCG | 0.138 |
| CGGTAAAG | 0.235 |
| TAACACAA | 0.0284 |
| AGATGAAT | -0.169 |

Set 5
Target: Myc proto-oncogene protein, bHLH-zipper, MAX partner unstated (MYC, Homo sapiens, UniProt P01106, residues 368-449)
UniProt P01106, sequence (368-449, looked up): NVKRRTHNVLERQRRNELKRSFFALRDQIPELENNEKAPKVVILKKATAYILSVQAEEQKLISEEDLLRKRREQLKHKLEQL
Method: protein-binding microarray
Form: double-stranded DNA, one strand shown
Medium: in vitro
Tested at: not given
Setting: k-mer, scored over probes, only values ≥0.25
Direction: higher = stronger binding
| Strand | E-score |
| --- | --- |
| GTGCGCGA | 0.287 |
| CACGTGCG | 0.496 |
| CATGTGCG | 0.477 |
| ACATGGGA | 0.272 |
| ATGTGGTG | 0.32 |
| AGGTGCAT | 0.316 |
| ACACGACG | 0.255 |
| ACGCAATG | 0.257 |
| CACGTCTC | 0.267 |
| AAACACAC | 0.262 |
| CTCGTGTA | 0.44 |
| CATGTGAA | 0.379 |
| CACGGGGG | 0.365 |
| CCGCCACC | 0.271 |
| CACACACG | 0.32 |
| GCCCCACA | 0.262 |
| ATAACACG | 0.357 |
| AAGCATGA | 0.258 |
| CCACGCGG | 0.493 |
| GCGATCAC | 0.29 |
| AGGTGTGG | 0.27 |
| CGCCCACG | 0.385 |
| CATGCCGC | 0.419 |
